Assay results collected from several papers.
UCHL1: Ubiquitin carboxyl-terminal hydrolase isozyme L1 (UCHL1, Homo sapiens, UniProt P09936)
Voltage-dependent P/Q-type calcium channel subunit alpha-1A: Voltage-dependent P/Q-type calcium channel subunit alpha-1A (Homo sapiens, UniProt O00555)

SMILES = CC(C)c1noc2ncc(C(=O)c3ccccc3O)cc12; tested on = Voltage-gated potassium channel KCNC4 (KCNC4, Homo sapiens, UniProt Q03721); assay = ion current, whole-cell patch-clamp; conditions = 10 µM, hKv3.4; endpoint = inhibition; value = 0.894%
SMILES = COc1cc(Cl)c(C(=O)N[C@@H](CN[C@H]2CC[C@@H](N)CC2)Cc2ccc(C#N)cc2)cc1-c1ccc(CN[C@H](C)c2ccc(C)cc2)o1; tested on = TACR1 (Homo sapiens, UniProt P25103); assay = agonist response, antagonist; test system = human cells; conditions = 10 µM, NK1 antagonist; endpoint = inhibition; value = 41%
SMILES = Cc1cc(-c2ccnc3[nH]cc(F)c23)cc(F)c1[C@@]1(O)[C@H](C)CN(C(=O)CN)C[C@@H]1C; tested on = LATS2 (Homo sapiens, UniProt Q9NRM7); assay = ATP probe binding, KiNativ, refers to: Lys2 site; test system = HEK293T cell lysate; conditions = 10 µM; endpoint = inhibition; value = 98.2%
SMILES = COc1ccccc1N=Nc1ccc(NC(=O)CCl)cc1C; tested on = UCHL1; assay = covalent, intact protein LC-MS; conditions = 12.5 µM; endpoint = labelling; value = 10.1%
SMILES = Cc1cc(C)cc(COc2cc3c(cc2OCc2cc(C)cc(C)c2)[C@H]2C[C@](O)(Cc4cn(Cc5ccncc5)nn4)C[C@H](C)N2CC3)c1; tested on = Rab GDP dissociation inhibitor beta, with Rab1A (Homo sapiens, UniProt P50395); assay = GDI2-Rab1A interaction, NanoLuc complementation; conditions = 6.25 µM; endpoint = inhibition; value = 86.3%
SMILES = Fc1ccc([C@@H]2CCNC[C@H]2COc2ccc3c(c2)OCO3)cc1; tested on = Voltage-dependent P/Q-type calcium channel subunit alpha-1A; assay = ion current, antagonist; test system = HEK293; conditions = 10 µM; endpoint = inhibition; value = 97%
SMILES = C=C1O[C@H](CO)[C@@H](O)[C@H](O)[C@H]1O; tested on = uncharacterized protein (Saccharopolyspora erythraea, UniProt A4F7P9); assay = enzyme activity; conditions = concentration not given, kinetics; endpoint = inhibition; value = no inhibition
SMILES = [2H]c1cc(C)c(NC(=O)c2cnc(Nc3cc(N4CCCCC4)nc(C)n3)s2)c(Cl)c1; tested on = PDGFRA (Homo sapiens, UniProt P16234); conditions = 0.01 µM; endpoint = inhibition; value = 30 to 90%
SMILES = CCn1cc(C(=O)O)c(=O)c2cc(F)c(N3CCNCC3)nc21; tested on = Voltage-dependent P/Q-type calcium channel subunit alpha-1A; assay = ion current, antagonist; test system = HEK293; conditions = 3 µM; endpoint = inhibition; value = 8%
SMILES = CC[C@@H]1[C@H](F)C(=O)N[C@@H]1COc1nccc2cc(C(N)=O)c(OC)cc12; tested on = PTK2 (Homo sapiens, UniProt Q05397); assay = ATP probe binding, KiNativ profiling, refers to: Lys1 probe site; test system = THP-1 cell lysate; conditions = 0.2 mM; endpoint = inhibition; value = -1.1%
SMILES = CC/C(=N\NC(=O)NCc1cccc(O)c1)c1ccc(O)c(C)c1O; tested on = MAP3K4 (Homo sapiens, UniProt Q9Y6R4); assay = kinase activity; conditions = 0.1 µM; endpoint = inhibition; value = -2.3%
SMILES = COc1ccccc1/C=C/CN1CCCC(CCC(=O)NCc2ccccc2F)C1 (centres unmarked); tested on = Trypanosoma cruzi; assay = reporter translation, Renilla luciferase mRNA translation; test system = cell-free extract; conditions = 40 µM; how to read = baseline: DMSO; endpoint = inhibition; value = -1.1%
SMILES = CN(C)CCC=C1c2ccccc2C=Cc2ccccc21; tested on = Voltage-dependent P/Q-type calcium channel subunit alpha-1A; assay = ion current, antagonist; test system = HEK293; conditions = 10 µM; endpoint = inhibition; value = 65%
SMILES = O=C(CCl)Cc1ccc(F)cc1F; tested on = UCHL1; assay = covalent, intact protein LC-MS; conditions = 12.5 µM; endpoint = labelling; value = 20.9%
SMILES = Cc1ccc(-c2cn(Cc3cccc(Cl)c3)c3[n+]2CCC3)cc1.[Br-]; tested on = Trypanosoma cruzi; assay = reporter translation, Renilla luciferase mRNA translation; test system = cell-free extract; conditions = 40 µM; how to read = baseline: DMSO; endpoint = inhibition; value = -4.2%
SMILES = CCCN1C[C@H](CSC)C[C@@H]2c3cccc4[nH]cc(c34)C[C@H]21; tested on = Voltage-dependent P/Q-type calcium channel subunit alpha-1A; assay = ion current, antagonist; test system = HEK293; conditions = 3 µM; endpoint = inhibition; value = 2%
SMILES = Cc1cc(-c2ccnc3[nH]cc(F)c23)cc(F)c1[C@@]1(O)[C@H](C)CN(C2CCS(=O)(=O)CC2)C[C@@H]1C; tested on = PIK3C3 (Homo sapiens, UniProt Q8NEB9); assay = ATP probe binding, KiNativ, refers to: ATP site; test system = HEK293T cell lysate; conditions = 10 µM; endpoint = inhibition; value = 87.8%
SMILES = NCCNC(=O)c1ccc(Cl)cn1; tested on = Voltage-dependent P/Q-type calcium channel subunit alpha-1A; assay = ion current, antagonist; test system = HEK293; conditions = 10 µM; endpoint = inhibition; value = 3%
SMILES = CN1CCN(c2cc(-c3ccncc3)c(-c3ccc4ccccc4c3)nn2)CC1; tested on = CCR3 (Homo sapiens, UniProt P51677); assay = antagonist, FLIPR; conditions = 10 µM; endpoint = inhibition; value = -3.4%
SMILES = O=C(O)CCCOc1c2ccoc2cc2oc(=O)ccc12; tested on = Kcna3 (Mus musculus, UniProt P16390); assay = potassium current; test system = L929; conditions = 25 µM; endpoint = inhibition; value = no effect

Repeated from above:
SMILES = Cc1cc(-c2ccnc3[nH]cc(F)c23)cc(F)c1[C@@]1(O)[C@H](C)CN(C(=O)CN)C[C@@H]1C; tested on = LATS2 (Homo sapiens, UniProt Q9NRM7); assay = ATP probe binding, KiNativ, refers to: Lys2 site; test system = HEK293T cell lysate; conditions = 10 µM; endpoint = inhibition; value = 98.2%
SMILES = [2H]c1cc(C)c(NC(=O)c2cnc(Nc3cc(N4CCCCC4)nc(C)n3)s2)c(Cl)c1; tested on = PDGFRA (Homo sapiens, UniProt P16234); conditions = 0.01 µM; endpoint = inhibition; value = 30 to 90%
